Experimental data pooled from the literature.
Lines come from different studies, so protocols differ. Several values in a cell are separate wells, animals, samples, runs or records. Numbers after ± are the reported error.
Voltage-dependent P/Q-type calcium channel subunit alpha-1A: Voltage-dependent P/Q-type calcium channel subunit alpha-1A (Homo sapiens, UniProt O00555)
Rab GDP dissociation inhibitor beta with Rab1A: Rab GDP dissociation inhibitor beta, with Rab1A (Homo sapiens, UniProt P50395)
UCHL1: Ubiquitin carboxyl-terminal hydrolase isozyme L1 (UCHL1, Homo sapiens, UniProt P09936)

| SMILES | tested on | test | test system | setting | how to read | measurement | value |
| --- | --- | --- | --- | --- | --- | --- | --- |
| NC(=S)Nc1ccc(Cl)c(Cl)c1 | SLC2A1 (Homo sapiens, UniProt P11166) | D-glucose exchange | – | 100 µM, 10 °C, added: 20 mM D-glucose | – | inhibition | 24.3% |
| O=C(O)Cc1ccccc1Nc1c(Cl)cccc1Cl | Voltage-dependent P/Q-type calcium channel subunit alpha-1A | ion current, antagonist | HEK293 | 30 µM | – | inhibition | 8% |
| C=CS(=O)(=O)Nc1ccc(Cn2cc(C[C@@]3(O)C[C@@H]4c5cc(OCc6cc(C)cc(C)c6)c(OCc6cc(C)cc(C)c6)cc5CCN4[C@@H](C)C3)nn2)cc1 | Rab GDP dissociation inhibitor beta with Rab1A | GDI2-Rab1A interaction, NanoLuc complementation | – | 6.25 µM | – | inhibition | 94.8% |
| CC(=O)ON=C1C=CC(=C(C#N)c2ccccc2)C=C1 | HASPIN (Homo sapiens, UniProt Q8TF76) | kinase activity, ADP-Glo | – | 20 µM | – | inhibition | 43% |
| COC(=O)c1ccc(CN2CCCC(CCC(=O)NCc3ccc(C)o3)C2)cc1 (centres unmarked) | Trypanosoma cruzi | reporter translation, Renilla luciferase mRNA translation | cell-free extract | 40 µM | relative to: DMSO | inhibition | -0.46% |
| N#CC(C(=O)CCl)=C1Nc2cc(Cl)ccc2S1 | UCHL1 | covalent, intact protein LC-MS | – | 12.5 µM | – | labelling | 9.42% |
| CC[C@@H]1[C@H](F)C(=O)N[C@@H]1COc1nccc2cc(C(N)=O)c(OC)cc12 | MAP3K4 (Homo sapiens, UniProt Q9Y6R4) | ATP-site probe binding, ActivX profiling | THP-1 cell lysate | 0.2 mM, Lys2 site | – | inhibition | -1.4% |
| CC(C)=CCCC(C)CN(C)CCc1ccccn1 (centres unmarked) | Trypanosoma cruzi | reporter translation, Renilla luciferase mRNA translation | cell-free extract | 40 µM | relative to: DMSO | inhibition | -1.4% |
| Cc1ccc(NC(=O)C2(CNC(=O)C(C)Cl)CCCC2)cc1C (centres unmarked) | UCHL1 | covalent, intact protein LC-MS | – | 12.5 µM | – | labelling | 10.4% |
| COc1c(C#N)ccnc1N1C2CCC1CN(C(=O)c1cccnc1-n1cccn1)C2 | sst | binding | – | 10 µM | – | inhibition | -3% |
| CCC(=O)NC[C@@H]1C[C@H]1c1cccc2c1CCO2 | Voltage-dependent P/Q-type calcium channel subunit alpha-1A | ion current, antagonist | HEK293 | 3 µM | – | inhibition | 2% |
| COc1ccc(F)cc1C(=O)NCc1ccc(-c2nn([C@@H](C)C(F)(F)F)c(N)c2C(N)=O)cc1 | TEC (Homo sapiens, UniProt P42680) | target engagement, competitive chemoproteomics | human PBMCs | 0.1 µM | – | inhibition | 29.9% |
| [2H]c1cc(C)c(NC(=O)c2cnc(Nc3cc(N4CCCCC4)nc(C)n3)s2)c(Cl)c1 | EPHA1 (Homo sapiens, UniProt P21709) | – | – | 0.001 µM | – | inhibition | > 50% |
| Nc1nc2ccc(OC(F)(F)F)cc2s1 | Voltage-dependent P/Q-type calcium channel subunit alpha-1A | ion current, antagonist | HEK293 | 10 µM | – | inhibition | 24% |
| OO | Histone acetyltransferase RTT109, with Vps75 (Saccharomyces cerevisiae, UniProt Q07794) | enzyme activity | – | 1 mM, added: Rtt109-Vps75 complex, with DTT | – | inhibition | 20 ± 10% |
| COc1ccc(Cn2cc(C[C@@]3(O)C[C@@H]4c5cc(OCc6cc(C)cc(C)c6)c(OCc6cc(C)cc(C)c6)cc5CCN4[C@@H](C)C3)nn2)cc1 | Rab GDP dissociation inhibitor beta with Rab1A | GDI2-Rab1A interaction, NanoLuc complementation | – | 6.25 µM | – | inhibition | 96.7% |
| O=C1CC2(CCCC2)CC(=O)N1CCCCN1CCN(c2ncccn2)CC1 | Voltage-dependent P/Q-type calcium channel subunit alpha-1A | ion current, antagonist | HEK293 | 30 µM | – | inhibition | 20% |
| O=C(Nc1cccc2c(=O)cc(-c3nnn[nH]3)oc12)c1ccc(OCCCCc2ccccc2)cc1 | Volume-regulated anion channel subunit LRRC8C, part LRRC8A IL1 chimera (LRRC8C, Homo sapiens, UniProt Q8TDW0) | ion current, inhibitor, whole-cell patch clamp | HCT LRRC8-/- cells, transfected | 3 µM, low ionic strength swelling, +100 mV | – | inhibition | 86.1% and 70.9% and 53.1% and 71.3% |
| COc1ccc2c3c1O[C@H]1C[C@@H](O)C=C[C@@]31CCN(C)C2 | Voltage-dependent P/Q-type calcium channel subunit alpha-1A | ion current, antagonist | HEK293 | 30 µM | – | inhibition | 2% |
| Cc1cc(-c2ccnc3[nH]cc(F)c23)cc(F)c1[C@@]1(O)[C@H](C)CN(C(=O)CN)C[C@@H]1C | PIK3C3 (Homo sapiens, UniProt Q8NEB9) | ATP probe binding, KiNativ, item: ATP site | HEK293T cell lysate | 1 µM | – | inhibition | 66.2% |
